Assay results from different studies.
Protocols differ between the studies behind these lines. Numbers after ± are the reported error.

SMILES	cell line	test	system	conditions	how to read	quantity	result
CNC(=O)c1cc(Oc2ccc(NC(=O)c3cc(-c4ccc(OC(=O)CCC(=O)OC5OC6OC7(C)CCC8C(C)CCC(C5C)C68OO7)cc4)ccn3)cc2)ccn1 (stereo not drawn)	Hep3B and LO2	cell viability, MTT	–	72 h	reference: IC50 LO2 over IC50 Hep3B	selectivity ratio	6.1
CC[C@H](C)[C@H](NC(C)=O)C(=O)N[C@@H](CC(N)=O)C(=O)N[C@@H](Cc1c[nH]c2ccccc12)C(=O)N[C@@H](Cc1c[nH]cn1)C(=O)N[C@@H](C)C(=O)N[C@H](C(=O)N[C@@H](C)C(=O)N[C@@H](Cc1c[nH]cn1)C(=O)N[C@@H](CCSC)C(=O)N[C@@H](C)C(=O)N[C@@H](CCCCN)C(=O)N[C@@H](CCCCN)C(=O)N[C@@H](CC(C)C)C(=O)N[C@@H](CC(C)C)C(N)=O)[C@@H](C)CC	human erythrocytes	haemolysis	–	together with: Zn(II) 300 µM	–	Hill coefficient	1 ± 0.1
CC(C)CC(O)(CC(C)C)c1cn(C(=O)N2CCCC2)nn1	mouse T-cells	N-terminal labeled proteins, N-terminal enrichment proteomics, refers to: EFHD2	–	1 nM, 6 h	reference: DMSO	SILAC ratio	2.18 ± 0.12
CC1=CCC23OC2(C)CCC2C(C[N+](C)(C)C)C(=O)OC2C13.[I-] (stereo not drawn)	BT-549	cell growth or viability, SRB	–	8.3 µM	–	inhibition	58.4%
CC[C@H](C)[C@H]1C(=O)O[C@H](C(C)C)C(=O)N(C)[C@@H]([C@@H](C)CC)C(=O)O[C@H](C(C)C)C(=O)N(C)[C@@H]([C@@H](C)CC)C(=O)O[C@H](C(C)C)C(=O)N1C	E0771	RNA-seq	–	concentration not given	reference: 17-AAG	shared regulated genes	34 genes
CC[C@H](C)[C@@H]1NC(=O)CNC(=O)[C@H](CCSC)NC(=O)[C@H](C(C)C)NC(=O)[C@H]([C@@H](C)O)NC(=O)[C@@H]2CSSC[C@@H]3NC(=O)[C@H](Cc4c[nH]cn4)NC(=O)[C@@H](NC(=O)[C@@H](NC(=O)[C@H](Cc4ccccc4)NC(=O)[C@H](C)N)[C@@H](C)O)CSSC[C@@H](C(=O)N[C@@H](CC(C)C)C(=O)O)NC(=O)[C@H](CSSC[C@H](NC(=O)[C@H](CO)NC(=O)[C@H](CCCNC(=N)N)NC(=O)[C@H](CCCNC(=N)N)NC3=O)C(=O)N[C@@H](Cc3ccc(O)cc3)C(=O)N[C@@H](CO)C(=O)N[C@@H]([C@@H](C)O)C(=O)N[C@@H](CCC(=O)O)C(=O)N[C@@H](Cc3ccc(O)cc3)C(=O)N[C@@H](CO)C(=O)N[C@@H](Cc3ccc(O)cc3)C(=O)NCC(=O)N[C@@H]([C@@H](C)O)C(=O)N2)NC(=O)[C@H](Cc2ccccc2)NC(=O)[C@H](CCCNC(=N)N)NC(=O)[C@H](Cc2c[nH]cn2)NC(=O)[C@H](CC(N)=O)NC1=O	RIN-m5F	MTT	–	20 µM, 24 h, together with: hIAPP 20 µM	–	viability	85%
O=C(Nc1ccc(C(F)(F)F)cc1Cl)c1cc(Cl)ccc1O	CWR22Rv1 cells	ELISA	–	0.5 and 1.0 µM	–	cell death	increased
CC[C@H](C)[C@H](NC(=O)[C@H](Cc1ccccc1)NC(=O)[C@H](CCC(=O)O)NC(=O)[C@H](CCCCN)NC(=O)[C@H](C)NC(=O)[C@H](C)NC(=O)[C@H](CC(N)=O)NC(=O)CNC(=O)[C@H](CCC(=O)O)NC(=O)[C@H](CC(C)C)NC(=O)[C@H](Cc1ccc(O)cc1)NC(=O)[C@H](CO)NC(=O)[C@H](CO)NC(=O)[C@@H](NC(=O)[C@H](CC(=O)O)NC(=O)[C@H](CO)NC(=O)[C@@H](NC(=O)[C@H](Cc1ccccc1)NC(=O)[C@@H](NC(=O)CNC(=O)[C@H](CCC(=O)O)NC(=O)[C@H](C)NC(=O)[C@@H](N)Cc1c[nH]cn1)[C@@H](C)O)[C@@H](C)O)C(C)C)C(=O)N[C@@H](CCC(N)=O)C(=O)N[C@@H](Cc1c[nH]c2ccccc12)C(=O)N[C@@H](CC(C)C)C(=O)N[C@H](C(=O)N[C@@H](CCCCN)C(=O)NCC(=O)N[C@@H](CCCNC(=N)N)C(N)=O)C(C)C	RIN-m5F rat β-cells	insulin secretion	–	–	reference: EC50 of analogue over EC50 of GLP-1(7-36)-amide	relative potency	0.42
CC(=O)N[C@@H](CCCNC(=N)N)C(=O)N[C@@H](CCCNC(=N)N)C(=O)N[C@@H](CCCNC(=N)N)C(=O)N[C@@H](CCCNC(=N)N)C(=O)N[C@@H](CCCNC(=N)N)C(=O)N[C@@H](CCCNC(=N)N)C(=O)N[C@@H](CCCNC(=N)N)C(=O)N[C@@H](CCCNC(=N)N)C(=O)N[C@@H](CCCNC(=N)N)C(=O)N[C@@H](CCCNC(=N)N)C(=O)NCC(=O)N[C@@H](COP(=O)(O)O)C(=O)N1CCC[C@H]1C(=O)N[C@H](C(=O)N[C@@H](Cc1ccccc1)C(=O)O)[C@@H](C)O	HeLa	co-immunoprecipitation	nuclear fraction	up to 100 µM	–	BRCA1-Abraxas interaction	no effect
CCCN(CCC)c1ncnc2c1cnn2-c1ccc(C)c(C)c1	primary rat pancreatic islets	flow cytometry, refers to: total and insulin-positive beta cells	–	30 µM, 48 h	reference: equimolar EUK-134	viability	increased
Cc1cc(O)cc(-c2nc(Nc3cc(C(F)(F)F)cc(C(F)(F)F)c3)ncc2-c2ccnc(Cl)c2)c1	HT-29	autophagy, Cyto-ID	–	10 µM, 48 h	–	inhibition	15%
CC/C=C\C/C=C\C/C=C\C/C=C\C/C=C\C/C=C\CCC(=O)Nc1ccn(C2OC(CO)C(O)C2(F)F)c(=O)n1 (stereo not drawn)	SF-539	NCI60 screen	–	–	–	CC50	30.6 µM
CC12OOC(C)(OO1)C2CCC(=O)NCCNc1ccnc2cc(Cl)ccc12 (stereo not drawn)	CCRF-CEM	cell growth or viability, resazurin	–	10 µM, 48 h	–	inhibition	52.8%
CNC(=O)c1cc(Oc2ccc(NC(=O)c3ccc(-c4cccc(OC(=O)CCC(=O)OC5OC6OC7(C)CCC8C(C)CCC(C5C)C68OO7)c4)cn3)cc2)ccn1 (stereo not drawn)	Huh-7 and LO2	cell viability, MTT	–	72 h	reference: IC50 LO2 over IC50 Huh-7	selectivity ratio	18.6
CC1CCC2C(C)C(OC(=O)CCC(=O)N(CCCc3cn(-c4ccc(CN5CCOCC5)cc4)nn3)CCNc3ccnc4cc(Cl)ccc34)OC3OC4(C)CCC1C32OO4 (stereo not drawn)	MOLT-4	cell growth or viability, resazurin	–	10 µM, 48 h	–	inhibition	29.8%
CSCC[C@@H](NC(=O)[C@@H](CC(C)C)NC(=O)CNC(=O)[C@@H](Cc1ccccc1)NC(=O)[C@@H](Cc1ccccc1)NC(=O)[C@@H](CCC(N)=O)NC(=O)[C@@H](CCC(N)=O)NC(=O)[C@H]1CCCN1C(=O)[C@@H](CCCCN)NC(=O)[C@H]1CCCN1C(=O)[C@H](N)CCCNC(=N)N)C(N)=O	rat mast cells	whole-cell patch-clamp capacitance	–	100 µM, intracellular, weakly buffered 200 µM EGTA	–	onset delay of degranulation	168 ± 77 s
C=CC[P](c1ccccc1)(c1ccccc1)[Pt]([S]c1ccccn1)([S]c1ccccn1)[P](CC=C)(c1ccccc1)c1ccccc1	MCF7	annexin V/7-AAD flow cytometry	–	5 µM	–	early apoptotic cells	40.8%

SMILES	cell line	test	system	conditions	how to read	quantity	result
Fc1cc2nc3c4cccnc4c4ncccc4c3nc2cc1F.[Cl-].[Cl-].[Ru+2].c1ccncc1.c1ccncc1.c1ccncc1.c1ccncc1	L-O2	–	–	5 µM, 24 h, with irradiation	–	viability	70%
CC12OOC(C)(OO1)C2CCC(=O)NCCCNc1ccnc2cc(Cl)ccc12 (stereo not drawn)	RPMI-8226	cell growth or viability, resazurin	–	10 µM, 48 h	–	inhibition	16.3%
CCCCCCCCCCCCCC(=O)NCC(=O)N[C@@H](CCCNC(=N)N)C(=O)N[C@@H](Cc1c[nH]c2ccccc12)C(=O)N[C@@H](CCCCN)C(=O)N[C@H](C(=O)N[C@@H](Cc1ccccc1)C(=O)N[C@@H](CCCCN)C(=O)N[C@@H](CCCCN)C(=O)N[C@H](C(=O)N[C@@H](CCC(=O)O)C(=O)N[C@@H](CCCCN)C(=O)N[C@H](C(=O)NCC(=O)N[C@@H](CCC(N)=O)C(=O)N[C@@H](CC(N)=O)C(=O)N[C@H](C(=O)N[C@@H](CCCNC(=N)N)C(=O)N[C@@H](CC(=O)O)C(=O)NCC(=O)N[C@H](C(=O)N[C@H](C(=O)N[C@@H](CCCCN)C(=O)N[C@@H](C)C(=O)NCC(=O)N1CCC[C@H]1C(=O)N[C@@H](C)C(=O)N[C@H](C(=O)N[C@@H](C)C(=O)N[C@H](C(=O)N[C@H](C(=O)NCC(=O)N[C@@H](CCC(N)=O)C(=O)N[C@@H](C)C(=O)N[C@@H](C)C(=O)N[C@H](C(=O)N[C@H](C(N)=O)[C@@H](C)CC)[C@@H](C)O)C(C)C)C(C)C)C(C)C)C(C)C)[C@@H](C)CC)[C@@H](C)CC)C(C)C)[C@@H](C)CC)[C@@H](C)CC	K562/MDR	western blot	–	concentration not given, 16 h	–	Bax protein level	increased
CCCN1CCNC1=[S+][Ag-3]([O][N+](=O)[O-])([P+](c1ccccc1)(c1ccccc1)c1ccccc1)[P+](c1ccccc1)(c1ccccc1)c1ccccc1	MG-63 osteosarcoma	MTT	–	50 µM	–	cell killing	≤ 85%
N=C(N)Nc1ccc(-c2nc3ccc(-c4ccc5nc(-c6ccc(NC(=N)N)cc6)[nH]c5c4)cc3[nH]2)cc1	FECD cells, control siRNA	RT-qPCR	–	concentration not given	–	TCF4 intron 3 level	no effect
CC[C@H](C)[C@H](NC(C)=O)C(=O)N[C@@H](CC(N)=O)C(=O)N[C@@H](Cc1c[nH]c2ccccc12)C(=O)N[C@@H](CCCCN)C(=O)NCC(=O)N[C@H](C(=O)N[C@@H](C)C(=O)N[C@@H](C)C(=O)N[C@@H](CCSC)C(=O)N[C@@H](C)C(=O)N[C@@H](CCCCN)C(=O)N[C@@H](CCCCN)C(=O)N[C@@H](CC(C)C)C(=O)N[C@@H](CC(C)C)C(N)=O)[C@@H](C)CC	human erythrocytes	hemolysis	–	no metal added	–	Hill coefficient	1.6 ± 0.1
CNC(=O)c1cc(Oc2ccc(NC(=O)c3ccc(-c4ccccc4OC(=O)CCC(=O)OC4OC5OC6(C)CCC7C(C)CCC(C4C)C57OO6)cn3)cc2)ccn1 (stereo not drawn)	Hep3B and LO2	cell viability, MTT	–	72 h	reference: IC50 LO2 over IC50 Hep3B	selectivity ratio	> 11.5
CCCC[C@H](O)C[C@@H](C)C[C@H](NC(=O)[C@@H]1C[C@H](C)CN1C(=O)/C=C/[C@@H](C)CC)C(=O)N[C@H](C(=O)NC(C)(C)C(=O)N[C@@H](CC(C)C)C(=O)N[C@@H](CC(C)C)C(=O)NC(C)(C)C(=O)NC(C)(C)C(=O)NCCC(=O)N[C@@H](C)CN(C)C)[C@H](O)C(C)C	SUM185PE	cell growth or viability, SRB	–	48 h	–	GI50	0.0028 µM
COc1cc(/C=C(\C#N)C(=O)Nc2nnc(C(F)(F)F)s2)ccc1OC(=O)N1CCN(C(=O)CCCC(=O)NCCCC[C@@H]2NC(=O)[C@@H](Cc3ccc(O)cc3)NC(=O)[C@H](CC(=O)O)NC(=O)CNC(=O)[C@H](CCCNC(=N)N)NC2=O)CC1	MRC5	cell growth or viability, MTT	–	–	–	GI50	49 µM
C#CCCCN(CCNc1ccnc2cc(Cl)ccc12)C(=O)CCC(=O)O[C@@H]1O[C@@H]2O[C@@]3(C)CC[C@H]4[C@H](C)CCC([C@H]1C)[C@@]24OO3 (stereo partly drawn)	MOLT-4	cell growth or viability, resazurin	–	10 µM, 48 h	–	inhibition	21.8%
O=C(O)CCC(NP(=O)(O)OCCC[C@@H](NC(=O)CCC(NC(=O)c1ccc([18F])cc1)C(=O)O)C(=O)O)C(=O)O (stereo partly drawn)	CWR22Rv1	–	–	1 h	–	surface-bound fraction	19.3 ± 1.76%
O=C(CN1CCN(c2cc3c(cc2F)c(=O)c(C(=O)O)cn3C2CC2)CC1)Nc1ccc(Cl)cc1	endometrial cancer cell lines	–	–	10 µM, 24 h	reference: untreated	cell cycle distribution	no effect
C[C@H]1O[C@@H]2C3=C(O[C@]2(C)[C@@]1(O)C=O)C(=O)c1c(O)cccc1C3=O	HeLa and HFF	MTT	–	–	reference: CC50 HFF over EC50 HeLa	selectivity index	1.04
CC(C)C[C@@H](NC(=O)CCNc1ccc([N+](=O)[O-])c2nonc12)C(=O)N[C@H](CC(C)C)C(=O)N[C@H](CC(C)C)C(=O)N[C@H](CC(C)C)C(=O)N[C@H](Cc1ccc(OP(=O)(O)O)cc1)C(=O)O	SJSA-1 RFP and HS5 co-culture	–	–	concentration not given, 4 h	–	SJSA-1 cell fraction	0.98%
COC(=O)c1ccc(-n2cc(CCCN(CCNc3ccnc4cc(Cl)ccc34)C(=O)CCC(=O)OC3OC4OC5(C)CCC6C(C)CCC(C3C)C46OO5)nn2)cc1 (stereo not drawn)	RPMI-8226	cell growth or viability, resazurin	–	10 µM, 48 h	–	inhibition	44.4%
O=C1[O][Pt]2([OH])([OH])([NH]C3CCCCC3[NH]2)[O]C1=O (stereo not drawn)	HUVEC	tube formation	–	IC10, 16 h	–	tube node disruption	9%

A few entries again:
SMILES	cell line	test	system	conditions	how to read	quantity	result
CNC(=O)c1cc(Oc2ccc(NC(=O)c3ccc(-c4cccc(OC(=O)CCC(=O)OC5OC6OC7(C)CCC8C(C)CCC(C5C)C68OO7)c4)cn3)cc2)ccn1 (stereo not drawn)	Huh-7 and LO2	cell viability, MTT	–	72 h	reference: IC50 LO2 over IC50 Huh-7	selectivity ratio	18.6
CC1CCC2C(C)C(OC(=O)CCC(=O)N(CCCc3cn(-c4ccc(CN5CCOCC5)cc4)nn3)CCNc3ccnc4cc(Cl)ccc34)OC3OC4(C)CCC1C32OO4 (stereo not drawn)	MOLT-4	cell growth or viability, resazurin	–	10 µM, 48 h	–	inhibition	29.8%
CSCC[C@@H](NC(=O)[C@@H](CC(C)C)NC(=O)CNC(=O)[C@@H](Cc1ccccc1)NC(=O)[C@@H](Cc1ccccc1)NC(=O)[C@@H](CCC(N)=O)NC(=O)[C@@H](CCC(N)=O)NC(=O)[C@H]1CCCN1C(=O)[C@@H](CCCCN)NC(=O)[C@H]1CCCN1C(=O)[C@H](N)CCCNC(=N)N)C(N)=O	rat mast cells	whole-cell patch-clamp capacitance	–	100 µM, intracellular, weakly buffered 200 µM EGTA	–	onset delay of degranulation	168 ± 77 s
C=CC[P](c1ccccc1)(c1ccccc1)[Pt]([S]c1ccccn1)([S]c1ccccn1)[P](CC=C)(c1ccccc1)c1ccccc1	MCF7	annexin V/7-AAD flow cytometry	–	5 µM	–	early apoptotic cells	40.8%
